Measurements of several laboratories.
Every numbered part comes from another study and shows a few of its results, in no order. Positions count from the first letter of the parent shown.

Set 1 — technique: competition protein-binding microarray; molecule type: double-stranded DNA, one strand shown; matrix: in vitro; tested at: 2 µM; with: Pho4 competitor, 0.05 µM; reading: higher = stronger binding; shared flanks, not repeated: … GTCTTGATTCGCTTGACGCTGCTG
Target: Centromere-binding protein 1, full length, His-tagged (CBF1, Saccharomyces cerevisiae, UniProt P17106, residues 1-351)
Chain of UniProt P17106 (whole entry, looked up): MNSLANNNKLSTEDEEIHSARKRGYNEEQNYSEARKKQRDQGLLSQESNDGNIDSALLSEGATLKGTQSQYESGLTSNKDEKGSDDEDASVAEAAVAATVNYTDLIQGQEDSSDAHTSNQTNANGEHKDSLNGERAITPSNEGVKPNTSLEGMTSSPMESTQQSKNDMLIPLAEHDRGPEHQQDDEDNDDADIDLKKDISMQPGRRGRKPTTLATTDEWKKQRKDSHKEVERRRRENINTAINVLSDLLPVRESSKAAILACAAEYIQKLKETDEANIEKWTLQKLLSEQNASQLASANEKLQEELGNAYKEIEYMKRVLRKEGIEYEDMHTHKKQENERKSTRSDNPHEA
Notes: whole 60-bp probe, lowest competitor level
Sequence | fluorescence intensity
AAATTACTAAGTTGTCACTCTACTTACCCCGTATGA | 77.3 a.u.
AGCGACCTTCTTGGCACCGTGCTTTTTGGCGACCTT | 70 a.u.
ATTCAAGAGATCCATCTCGTGACGGTGAAAAAATTT | 511 a.u.
AAATTACTAAGTTGAATGGTGGGTGACGCCGTATGA | 59.2 a.u.
CAGCGCTAAGGACATGCCGTGATGGCATCAACCGGC | 60.5 a.u.
GAAAATTGCCGTTGTCATGCTGAGCATTTGTCGTAC | 79.1 a.u.
CATACCCAACCTTTTCACGTGTCTTAAGATATTTGT | 1320 a.u.
TAATGAACTTTGTCCCACGTGCGGACATCATTTACT | 833 a.u.
CTTCTGTAAATTTGGCTTGTGGGTGGACGCGCCCCG | 92.4 a.u.
GTATGCACTTGAAACAACGTGTAGACCATCAAGTTG | 117 a.u.
CTAACGAAGGTTTGGGTGGTGGGTGACAAGCCAAGT | 68 a.u.
CTTCTGTAAATTTGCGGCGTGGGTGGACGCGCCCCG | 76.8 a.u.
CGGGGTTAAGTTTGGGATGTGGGTGGCTTGCAGCAG | 63.9 a.u.
CATACCCAACCTTGCCCTGTGGGTGAAGATATTTGT | 60.9 a.u.
CTTCTGTAAATTTGCAAGGTGGGTGGACGCGCCCCG | 72 a.u.
CTTCTGTAAATTTGTGGAGTGGGTGGACGCGCCCCG | 82.5 a.u.
CTAACGAAGGTTTGTCCAGTGGGTGACAAGCCAAGT | 64.4 a.u.
TGTAGCGCCAACCAACACGTGCAAATTTCCATCATC | 1380 a.u.

Set 2 — technique: protein binding microarray; molecule type: double-stranded DNA, one strand shown; matrix: in vitro; tested at: not given; reference: not given; reading: higher = stronger binding
Target: Histone acetyltransferase KAT6A, both winged helices, GST fusion (KAT6A, Homo sapiens, UniProt Q92794, residues 1-181)
Notes: 8-mer, flanks averaged, mean of 2 arrays, mostly near background
Residues (chain): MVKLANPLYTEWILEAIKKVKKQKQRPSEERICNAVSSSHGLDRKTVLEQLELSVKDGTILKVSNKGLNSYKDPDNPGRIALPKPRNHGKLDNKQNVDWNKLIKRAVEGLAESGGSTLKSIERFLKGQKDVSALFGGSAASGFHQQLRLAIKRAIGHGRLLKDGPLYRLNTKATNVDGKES
Sequence | E-score
TCCGATAA | 0.0875
ACGTACGA | 0.0193
AAAAAATG | -0.119
GGTACGGA | 0.213
CCGTACAG | 0.146
TCAGGAGA | -0.29
ACACATCT | -0.189
ACTTTCCT | -0.151
AAGAACTC | -0.103
CGCGACTC | 0.138
CTTTCTGA | -0.139
AAATGGGT | -0.0564
GAACAATC | 0.0595
ACTGAACA | -0.0526
CATGATGA | -0.132
GGGGATAA | -0.111
AAACATGC | 0.0174
ATGAAAAC | 0.0743
TGACAAAA | -0.133
CATGCGCG | 0.33
ATAGGTAC | -0.154
CTACCTCA | -0.174
CATTACCA | -0.136
GCCGCAAA | 0.236
AATCTGCA | -0.168

Set 3 — target: UBE2L3 UBC core domain (UniProt P68036); technique: yeast two-hybrid; matrix: yeast; notes: mostly zero background; reference: not given; reading: higher = stronger interaction
Chain of UniProt P68036 (whole entry, looked up): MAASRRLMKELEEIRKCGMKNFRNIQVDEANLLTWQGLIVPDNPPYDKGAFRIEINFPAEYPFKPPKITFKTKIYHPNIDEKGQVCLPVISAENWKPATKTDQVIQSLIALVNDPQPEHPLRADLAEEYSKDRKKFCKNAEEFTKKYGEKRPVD
B1: MID2 RING domain (UniProt Q9UJV3); chain KMETLESELTCPICLELFEDPLLLPCAHSLCFSCAHRILVSSCSSGESIEPITAFQCPTCRYVISLNHRGL
B2: CNOT4 RING domain (UniProt O95628); chain MSRSPDAKEDPVECPLCMEPLEIDDINFFPCTCGYQICRFCWHRIRTDENGLCPACRKPYPED
B3: RNF6 RING domain (UniProt Q9Y252); chain NSIDSELGKICSVCISDYVTGNKLRQLPCMHEFHIHCIDRWLSENCTCPICRQPVLGSNIAN
B4: ARIH2 RING domain (UniProt O95376); chain HVPTSHPPHHCAVCMQFVRKENLLSLACQHQFCRSCWEQHCSVLVKDGVGVGVSCMAQDCPLRTPEDFVF
B5: NFX1 RING domain (UniProt Q12986); chain IEQLTTEKYECMVCCELVRVTAPVWSCQSCYHVFHLNCIKKWARSPASQADGQSGWRCPACQNVSAHVPNTY
B6: ZNRF4 RING domain (UniProt Q8WWF5); chain VRTFTWHNDLCAICLDEYEEGDQLKILPCSHTYHCKCIDPWFSQAPRRSCPVCKQSVAATEDSF
Molecule | lacZ reporter activity
FAEQPSVKLCCQLCCSVFKDPVITTCGHTFCRRCALKSEKCPVDNVKLTVVVNNI (TRAF7 RING domain (UniProt Q6Q0C0)) | 0
B1 (MID2 RING domain) | 0
B2 (CNOT4 RING domain) | 0
B3 (RNF6 RING domain) | 0
FDPPLESKYECPICLMALREAVQTPCGHRFCKACIIKSIRDAGHKCPVDNEILLENQLFP (TRAF6 RING domain (UniProt Q9Y4K3)) | 0
B4 (ARIH2 RING domain) | 0
B5 (NFX1 RING domain) | 0
ASPKIFQKTKCSICNSALELPSVHFLCGHSFHQHCFESYSESDADCPTCLPENRKVMDMI (VPS11 RING domain (UniProt Q9H270)) | 0
B6 (ZNRF4 RING domain) | 0

Set 4 — technique: DHFR PCA, deep sequencing; matrix: yeast; with: (+)-ABA 200 µM; reference: wild-type fitted maximum; reading: higher = stronger binding
Target: ABI1, truncated, D143A, DHFR fusion (Arabidopsis thaliana)
Notes: methotrexate growth selection, single substitutions
Starting sequence: PYL1, truncated, DHFR fusion (Arabidopsis thaliana); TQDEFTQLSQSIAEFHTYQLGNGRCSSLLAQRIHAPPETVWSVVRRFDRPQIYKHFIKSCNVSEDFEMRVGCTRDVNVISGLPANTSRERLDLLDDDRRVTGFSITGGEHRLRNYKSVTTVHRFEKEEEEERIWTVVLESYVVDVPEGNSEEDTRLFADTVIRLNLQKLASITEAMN; partner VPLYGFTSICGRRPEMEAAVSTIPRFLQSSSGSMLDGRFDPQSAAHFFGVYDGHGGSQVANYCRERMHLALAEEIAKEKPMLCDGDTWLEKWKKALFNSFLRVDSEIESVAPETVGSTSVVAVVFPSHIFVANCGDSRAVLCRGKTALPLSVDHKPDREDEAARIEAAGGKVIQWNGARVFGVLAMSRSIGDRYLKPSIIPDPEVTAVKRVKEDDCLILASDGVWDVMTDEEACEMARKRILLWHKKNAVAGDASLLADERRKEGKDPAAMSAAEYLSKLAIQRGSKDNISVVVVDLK
Substitution | relative binding score [%]
S42K | 104
R49D | 81.2
E174K | 81.9
R69E | 101
S140I | -5.41
V136R | 25.6
V121A | 39.4
H55W | 98.1
M176D | 93.1
T39L | 99.3
V137G | -6.54
S171Y | 95.5
T173C | 107
V44S | 9.71
R132M | 111

For quick reference, copied from above (set 4):
Substitution | relative binding score [%]
E174K | 81.9
R69E | 101
S140I | -5.41
V136R | 25.6
V121A | 39.4
H55W | 98.1
M176D | 93.1
